Assay results gathered from unrelated publications.
Protocols differ between the studies behind these lines. Values joined by “and” are separate records of one study, mostly repeats; a detail may differ.

ETTLKSF
inhibition (Plasmodium falciparum; merozoite invasion; peptide, 3D7; 400 µg/mL, 20 h, biotinylated peptide): ~48% and 48%

aspterric acid
hypocotyl length (Arabidopsis thaliana Col-0 seeds; 3.125 µg/mL, seed germination): 1.87 cm

oseltamivir carboxylate
EC50 (Influenza A virus; viral replication, visual CPE score; MDCK, H1N1): 9 µM

oligomycin A
maximum inhibition (human coronavirus OC43; virus-induced cell death; MRC-5): 11.9%

oseltamivir carboxylate
EC50 (Influenza A virus H3N2; cytopathic effect, visual CPE score; MDCK): > 100 µM

Ro 31-8220
PB1-F2 protein level (influenza A virus H1N1; viral infection; concentration not given): no effect

AZ3146
maximum inhibition (human coronavirus OC43; virus-induced cell death; MRC-5): 2.13%

insulin human
fold change (refers to: GOT2 mRNA; uninfected mouse, brain; i.p., dose not given; relative to: PBS): 1.07

caspofungin
radial growth ratio (Aspergillus fumigatus; wild type, minimal medium; concentration not given; relative to: untreated): 0.516 and 0.392 and 0.558 and 0.449 and 0.434 and 0.468

oseltamivir carboxylate
EC50 (Influenza A virus H1N1; visual CPE score): 4 µM

Repeated from above:
oseltamivir carboxylate
EC50 (Influenza A virus H1N1; visual CPE score): 4 µM
